# Measurements of several laboratories.
# Parts stem from different laboratories: compare values within a part only.
# Sequence of UniProt P30291 (whole entry, looked up): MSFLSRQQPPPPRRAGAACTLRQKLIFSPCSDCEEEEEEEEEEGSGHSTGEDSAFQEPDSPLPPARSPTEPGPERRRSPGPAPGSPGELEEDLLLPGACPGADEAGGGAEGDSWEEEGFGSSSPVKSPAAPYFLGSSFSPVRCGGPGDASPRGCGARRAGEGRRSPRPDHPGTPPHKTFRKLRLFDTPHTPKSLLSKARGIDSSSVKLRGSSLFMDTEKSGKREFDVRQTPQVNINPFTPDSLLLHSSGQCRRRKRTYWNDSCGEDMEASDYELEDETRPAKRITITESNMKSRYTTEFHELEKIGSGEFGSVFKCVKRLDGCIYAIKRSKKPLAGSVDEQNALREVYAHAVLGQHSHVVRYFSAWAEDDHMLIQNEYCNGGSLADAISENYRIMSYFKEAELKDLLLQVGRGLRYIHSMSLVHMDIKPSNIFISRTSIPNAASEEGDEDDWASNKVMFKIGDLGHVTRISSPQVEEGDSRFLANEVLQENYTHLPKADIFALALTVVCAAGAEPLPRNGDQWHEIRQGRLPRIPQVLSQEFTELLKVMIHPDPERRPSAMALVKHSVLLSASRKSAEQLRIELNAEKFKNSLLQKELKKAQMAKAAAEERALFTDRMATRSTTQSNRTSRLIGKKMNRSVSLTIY
# Sequence of UniProt O94804 (whole entry, looked up): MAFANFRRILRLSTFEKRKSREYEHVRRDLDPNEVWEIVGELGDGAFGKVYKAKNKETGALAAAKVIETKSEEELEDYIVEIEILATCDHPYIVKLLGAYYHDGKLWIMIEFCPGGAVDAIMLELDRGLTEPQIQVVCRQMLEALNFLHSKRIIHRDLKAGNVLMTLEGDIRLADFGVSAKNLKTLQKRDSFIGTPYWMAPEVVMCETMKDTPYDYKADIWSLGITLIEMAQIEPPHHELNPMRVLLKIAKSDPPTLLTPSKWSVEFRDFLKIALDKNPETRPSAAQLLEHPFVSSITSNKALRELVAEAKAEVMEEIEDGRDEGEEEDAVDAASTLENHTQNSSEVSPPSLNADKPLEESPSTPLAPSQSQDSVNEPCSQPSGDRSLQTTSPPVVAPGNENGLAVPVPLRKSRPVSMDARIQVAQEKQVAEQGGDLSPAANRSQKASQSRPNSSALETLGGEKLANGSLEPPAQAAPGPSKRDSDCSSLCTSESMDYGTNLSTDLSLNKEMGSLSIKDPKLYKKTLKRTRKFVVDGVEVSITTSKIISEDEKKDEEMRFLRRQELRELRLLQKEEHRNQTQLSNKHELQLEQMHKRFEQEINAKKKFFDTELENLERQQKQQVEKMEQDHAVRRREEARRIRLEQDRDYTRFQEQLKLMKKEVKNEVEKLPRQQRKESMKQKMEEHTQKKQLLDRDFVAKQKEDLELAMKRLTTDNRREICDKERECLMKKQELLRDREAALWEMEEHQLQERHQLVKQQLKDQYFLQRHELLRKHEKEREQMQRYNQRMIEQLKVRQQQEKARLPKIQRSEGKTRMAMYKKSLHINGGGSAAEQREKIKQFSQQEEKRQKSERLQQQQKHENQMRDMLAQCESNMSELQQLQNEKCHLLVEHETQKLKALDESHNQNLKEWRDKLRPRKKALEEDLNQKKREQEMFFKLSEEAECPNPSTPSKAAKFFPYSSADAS
# Sequence of UniProt Q96PY6 (whole entry, looked up): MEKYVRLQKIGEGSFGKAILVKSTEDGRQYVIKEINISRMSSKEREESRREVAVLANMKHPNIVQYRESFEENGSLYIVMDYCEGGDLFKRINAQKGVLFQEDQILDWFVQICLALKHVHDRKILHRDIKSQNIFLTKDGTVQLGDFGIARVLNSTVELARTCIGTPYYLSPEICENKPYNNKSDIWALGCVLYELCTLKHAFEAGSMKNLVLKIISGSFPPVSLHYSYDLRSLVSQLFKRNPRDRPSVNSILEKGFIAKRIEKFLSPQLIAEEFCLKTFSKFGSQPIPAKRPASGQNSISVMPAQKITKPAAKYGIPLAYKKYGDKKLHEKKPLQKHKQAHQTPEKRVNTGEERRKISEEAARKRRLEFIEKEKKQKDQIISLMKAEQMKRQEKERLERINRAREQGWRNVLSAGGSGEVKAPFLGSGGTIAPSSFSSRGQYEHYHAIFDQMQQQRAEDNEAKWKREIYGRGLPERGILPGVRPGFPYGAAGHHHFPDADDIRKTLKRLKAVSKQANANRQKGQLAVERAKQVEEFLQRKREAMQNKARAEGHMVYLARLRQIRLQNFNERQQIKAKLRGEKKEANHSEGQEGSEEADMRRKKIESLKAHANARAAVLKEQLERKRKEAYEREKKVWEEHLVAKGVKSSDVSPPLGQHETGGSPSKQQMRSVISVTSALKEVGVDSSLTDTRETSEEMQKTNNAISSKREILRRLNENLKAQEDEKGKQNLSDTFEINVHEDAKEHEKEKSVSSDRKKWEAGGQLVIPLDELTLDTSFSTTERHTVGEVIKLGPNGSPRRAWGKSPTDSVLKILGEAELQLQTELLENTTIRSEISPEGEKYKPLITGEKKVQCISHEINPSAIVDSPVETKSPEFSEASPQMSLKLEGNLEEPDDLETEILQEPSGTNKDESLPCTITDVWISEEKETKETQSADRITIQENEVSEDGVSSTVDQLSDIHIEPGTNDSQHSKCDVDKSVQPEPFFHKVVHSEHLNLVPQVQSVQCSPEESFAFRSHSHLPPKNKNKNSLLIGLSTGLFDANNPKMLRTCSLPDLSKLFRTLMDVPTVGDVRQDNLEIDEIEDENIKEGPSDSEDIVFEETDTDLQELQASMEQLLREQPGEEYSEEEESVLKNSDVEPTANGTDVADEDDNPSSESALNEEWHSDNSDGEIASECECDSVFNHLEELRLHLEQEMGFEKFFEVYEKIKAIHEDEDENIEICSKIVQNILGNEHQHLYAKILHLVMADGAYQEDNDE
# Sequence of UniProt Q9H2K8 (whole entry, looked up): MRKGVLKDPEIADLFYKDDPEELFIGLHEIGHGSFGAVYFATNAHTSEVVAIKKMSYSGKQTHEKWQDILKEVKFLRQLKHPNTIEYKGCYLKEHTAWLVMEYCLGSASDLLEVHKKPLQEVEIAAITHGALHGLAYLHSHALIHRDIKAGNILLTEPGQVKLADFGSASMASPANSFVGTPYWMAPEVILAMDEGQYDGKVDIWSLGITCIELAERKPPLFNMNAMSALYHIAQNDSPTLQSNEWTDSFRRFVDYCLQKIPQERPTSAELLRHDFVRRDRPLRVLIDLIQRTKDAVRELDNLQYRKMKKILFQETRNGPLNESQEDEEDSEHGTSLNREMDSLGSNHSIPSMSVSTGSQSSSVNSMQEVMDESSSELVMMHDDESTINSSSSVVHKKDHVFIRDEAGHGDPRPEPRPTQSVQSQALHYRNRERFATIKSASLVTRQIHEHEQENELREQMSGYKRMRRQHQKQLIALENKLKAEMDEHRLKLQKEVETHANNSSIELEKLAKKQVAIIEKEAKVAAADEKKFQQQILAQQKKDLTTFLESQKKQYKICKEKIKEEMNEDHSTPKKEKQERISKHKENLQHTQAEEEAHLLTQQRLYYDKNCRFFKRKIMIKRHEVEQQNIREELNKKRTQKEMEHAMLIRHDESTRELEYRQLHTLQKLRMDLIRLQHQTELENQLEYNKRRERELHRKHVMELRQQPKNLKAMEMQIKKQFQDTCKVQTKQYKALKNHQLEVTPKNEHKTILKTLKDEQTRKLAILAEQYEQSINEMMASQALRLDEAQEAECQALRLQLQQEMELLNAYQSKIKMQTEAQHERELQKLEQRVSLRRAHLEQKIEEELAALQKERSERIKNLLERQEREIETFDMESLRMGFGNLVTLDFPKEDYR
# Sequence of UniProt P22607 (whole entry, looked up): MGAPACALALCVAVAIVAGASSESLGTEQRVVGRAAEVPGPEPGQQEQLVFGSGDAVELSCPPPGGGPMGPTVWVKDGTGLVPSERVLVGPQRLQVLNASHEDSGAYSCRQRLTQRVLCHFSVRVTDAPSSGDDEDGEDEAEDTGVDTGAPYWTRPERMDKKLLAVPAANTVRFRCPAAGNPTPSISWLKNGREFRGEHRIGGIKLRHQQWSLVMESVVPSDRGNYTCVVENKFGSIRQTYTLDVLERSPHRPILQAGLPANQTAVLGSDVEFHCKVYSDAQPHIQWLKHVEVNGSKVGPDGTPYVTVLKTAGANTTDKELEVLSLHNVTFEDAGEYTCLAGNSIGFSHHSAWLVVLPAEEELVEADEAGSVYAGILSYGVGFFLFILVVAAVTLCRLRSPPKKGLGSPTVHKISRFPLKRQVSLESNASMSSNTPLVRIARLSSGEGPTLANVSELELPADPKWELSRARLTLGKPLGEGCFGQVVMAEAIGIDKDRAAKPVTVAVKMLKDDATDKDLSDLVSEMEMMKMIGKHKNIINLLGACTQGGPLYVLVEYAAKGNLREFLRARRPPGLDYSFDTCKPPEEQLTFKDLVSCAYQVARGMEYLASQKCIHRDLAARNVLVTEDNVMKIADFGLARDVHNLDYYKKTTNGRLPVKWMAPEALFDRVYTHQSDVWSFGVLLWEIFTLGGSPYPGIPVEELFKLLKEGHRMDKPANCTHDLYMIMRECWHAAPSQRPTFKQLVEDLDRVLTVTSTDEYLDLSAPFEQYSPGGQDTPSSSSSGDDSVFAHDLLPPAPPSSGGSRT

# Set 1
# Target: Sal-like protein 4, full length isoform B (SALL4, Homo sapiens, UniProt Q9UJQ4-2, residues 1-616)
# Technique: universal PBM
# Molecule type: double-stranded DNA, one strand shown
# Matrix: in vitro
# Tested at: not given
# Setting: 8-mer, flanks averaged, mean of replicates
# Direction: higher = stronger binding
# Residues (chain): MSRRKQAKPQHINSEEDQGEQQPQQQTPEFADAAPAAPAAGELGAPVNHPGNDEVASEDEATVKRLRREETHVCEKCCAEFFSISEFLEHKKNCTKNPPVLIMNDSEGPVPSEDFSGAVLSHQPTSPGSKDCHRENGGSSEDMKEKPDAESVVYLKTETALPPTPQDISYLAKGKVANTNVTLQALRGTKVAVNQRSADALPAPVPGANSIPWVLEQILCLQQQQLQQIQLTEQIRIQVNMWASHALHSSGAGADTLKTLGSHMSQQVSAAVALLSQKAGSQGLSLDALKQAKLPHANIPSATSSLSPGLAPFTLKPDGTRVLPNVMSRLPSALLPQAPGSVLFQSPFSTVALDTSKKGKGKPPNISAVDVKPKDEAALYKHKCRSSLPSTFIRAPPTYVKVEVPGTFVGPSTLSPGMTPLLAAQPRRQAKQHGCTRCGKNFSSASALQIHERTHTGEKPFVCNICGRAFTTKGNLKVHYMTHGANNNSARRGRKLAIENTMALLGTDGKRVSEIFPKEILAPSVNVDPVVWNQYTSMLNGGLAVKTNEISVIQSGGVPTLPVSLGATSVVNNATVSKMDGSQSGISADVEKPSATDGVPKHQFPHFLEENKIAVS
Oligonucleotide,E-score
AGAACGTC,0.0109
ATCTCGCG,-0.00133
CCAGCGTA,-0.114
ACTGGGCC,-0.276
ATCGTAAA,0.272
CTTTTCCA,0.0712
CTGAGATC,-0.286
CAGCCATG,-0.0997

# Set 2
# Structure (SMILES): CN(C)CC#Cc1ccc(OCCCc2sc(N3CCc4cccc(C(=O)Nc5nc6ccccc6s5)c4C3)nc2C(=O)O)c(F)c1
# Read-out: cell-free assay
# Technique: competition with immobilised ligand
# Tested at: 1 µM
target,remaining binding
"Myosin light chain kinase family member 4 (MYLK4, Homo sapiens, UniProt Q86YV6)",99%
"Serine/threonine-protein kinase WNK3 (WNK3, Homo sapiens, UniProt Q9BYP7)",100%
"Proto-oncogene tyrosine-protein kinase Src (SRC, Homo sapiens, UniProt P12931)",100%
"Serine/threonine-protein kinase 10 (STK10, Homo sapiens, UniProt O94804)",100%
"Serine/threonine-protein kinase Nek3 (NEK3, Homo sapiens, UniProt P51956)",100%
"Wee1-like protein kinase (WEE1, Homo sapiens, UniProt P30291)",100%
"Serine/threonine-protein kinase TAO3 (TAOK3, Homo sapiens, UniProt Q9H2K8)",100%
"Ephrin type-A receptor 7 (EPHA7, Homo sapiens, UniProt Q15375)",99%
"Serine/threonine-protein kinase STK11 (STK11, Homo sapiens, UniProt Q15831)",100%
"Serine/threonine-protein kinase MRCK beta (CDC42BPB, Homo sapiens, UniProt Q9Y5S2)",87%

# Set 3
# Structure (SMILES): O=C(Nc1cccc(Nc2cc(Nc3cccc(C(F)(F)F)c3)ncn2)c1)C1CC1
# Read-out: enzyme activity
# Action: inhibitor
# Tested at: 0.5 µM
# Relative to: control
target,remaining activity
"Wee1-like protein kinase (WEE1, Homo sapiens, UniProt P30291)",94%
"Serine/threonine-protein kinase TAO2 (TAOK2, Homo sapiens, UniProt Q9UL54)",103%
"Serine/threonine-protein kinase Nek6 (NEK6, Homo sapiens, UniProt Q9HC98)",99.2%
"Rhodopsin kinase GRK7 (GRK7, Homo sapiens, UniProt Q8WTQ7)",99%
"Tyrosine-protein kinase Lck (LCK, Homo sapiens, UniProt P06239)",100%
"Serine/threonine-protein kinase Nek1 (NEK1, Homo sapiens, UniProt Q96PY6)",109%
"Tyrosine-protein kinase JAK3 (JAK3, Homo sapiens, UniProt P52333)",106%
"Angiopoietin-1 receptor (TEK, Homo sapiens, UniProt Q02763)",101%
"Fibroblast growth factor receptor 3 (FGFR3, Homo sapiens, UniProt P22607)",102%
"Fibroblast growth factor receptor 1 (FGFR1, Homo sapiens, UniProt P11362)",103%

# Set 4
# Target: Hepatocyte nuclear factor 3-alpha (Foxa1, Mus musculus, UniProt P35582, residues 1-468, full length assumed)
# Sequence of UniProt P35582 (whole entry, looked up): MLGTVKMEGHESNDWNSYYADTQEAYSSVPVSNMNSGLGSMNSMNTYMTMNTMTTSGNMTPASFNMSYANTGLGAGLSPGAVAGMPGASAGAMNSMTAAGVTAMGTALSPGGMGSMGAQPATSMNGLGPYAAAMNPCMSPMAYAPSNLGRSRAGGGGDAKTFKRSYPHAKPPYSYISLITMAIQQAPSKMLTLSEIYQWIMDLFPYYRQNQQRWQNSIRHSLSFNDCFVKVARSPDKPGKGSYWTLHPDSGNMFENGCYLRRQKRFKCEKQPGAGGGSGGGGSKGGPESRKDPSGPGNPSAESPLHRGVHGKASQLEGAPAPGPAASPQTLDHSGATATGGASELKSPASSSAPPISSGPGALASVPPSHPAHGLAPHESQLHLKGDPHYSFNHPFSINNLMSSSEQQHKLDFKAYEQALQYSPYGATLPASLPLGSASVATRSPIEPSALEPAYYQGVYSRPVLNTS
# Technique: EMSA with sequencing
# Molecule type: double-stranded DNA, one strand shown
# Matrix: in vitro
# Tested at: 10 and 20 nM
# Setting: whole designed probe, mean of two concentrations, ends assumed
# Relative to: negative control set to 0
# Direction: higher = stronger binding
# Constant ends, left off below: GTGAGCGGTGCCCATTGATGGGGAAC … TTTCACTGGGATCGTGGGGAC
Oligonucleotide,normalised bound fraction [ratio]
CTTCCAAAGGTCAAGTTGATACTGCATGACCTAAGGCCCCCGCCATAAATTGCGTTGTTTGCATAGATGACCTGGCACAACCCAAAGCCTTAGGTAAATAAAGACACTCTTAGAAAACAGGGTATTCCAAAGGCTCAGGGATTATCTTTCAGGAGATGGGCAGGGCCCAGTTGGGTTTTTTTTTTTTTTTTTT,0.504
ATCTTCCCCCTCTTCCTTGCCCCACCAGCTCACCTTCCCGGGTTATTTGCACAAAGGAAAATAAATAAAGCCGGCATTCGTTAACCCTCTTCACGCGCATACTGCTGTTTGCTCTGGATCTAACATGGTCCTTTGGCGAGGCGTGGCTCCGGGAGAGCAAAGCACCGTGTCAGGGCCATGATCCGGGCTCGCC,0.372
ACTCTGTAATTTTACACACGTGAAATTTCTCTGTTTCAAAAATAATAATACCAAGCATCTATAGGAGAGTAAATTGATACCAACATCAAAATGTAAACATGGAAGGTAAGAGAATTTTATAAGATCTGCTTTTTACACTTTCTTTTTCATATTCTATAAAAAGAGTACAACATAAGCAAAATGGTTGTCTAAA,0.344
CATGTACAAACAAAATATGGGTTGTGTAATTTCAGTAATTCCATGTACAAGTTAAACACTCTGATATTTGCATTTAAAATGTCATTGCACAATGTAAACATGAATGCTAACAATCTTTTTTTTTTTTCCTGAGACGGAGTCTTGCTCTATCGCCCAGGCTGGAGTGCAGCGGCACAATCTCTGCTTACTGCCA,0.502
CAGTTTTGCAAAGACGGAGTCCGTCAGAGAAAGCATTTGTTTGATTTCATGCATTTGTGTTTCCTTTGTCCATTTCCTTTATATTTATTTATTTGTTTATTTATTTTTTTGAGACGGAGTTTCGATCCTCTCGCCCAGGCTGGAGTGCAATATCGCGATCTCGGCTCACTGCAACCTCCCCCTCCCGGGTTCA,0.523
ATCTTCCCCCTCTTCCTTGCCCCACCAGCTCACCTTCCCGGGTATCTGCAAATAAGGAAATTAATATAAGCCGGCATTCGTTAACCCTCTTCTGGCGCAAACTGCACATTGGTCTGGATGAATCATGGTCCTTTGGCGACGCCAGGCTCCGGGAGAGCAAAGCACCGTGTCAGGGCCATGATCCGGGGTGGCC,0.0723
ATCTTCCCCCTCTTCCTTGCCCCACCAGCTCACCTACGGGGGTTATTTGCAGATAGGAAAATAAATAAAGCCGGCATTCGTTAACGCAGTTCTGGCGCAAACTGCTGTTTGCTCTGGATCTAACATGGTCCTTTGGCGAGGCGTGGCTCCGGGAGAGCAAAGCACCGTGTCAGGGCCATGATCCGGGGTGGCC,0.35
ATCACAATTGTATATAAACAATGTTTTGAATTAAAGAAGTAATGTATTTGCAGAAATTGCTTCCCTATTGTACCACATGATTCTTATTCAAAGTAAACACCAATAGTATACAGTGTTATAATGACTAAAAACAAACAAATGCCATTTTATATCATAGGATGTAATTTTATTTAAGTAGTAAAGAACTAATTTC,0.507

# For quick reference, copied from above (set 2):
target,remaining binding
"Serine/threonine-protein kinase Nek3 (NEK3, Homo sapiens, UniProt P51956)",100%
"Wee1-like protein kinase (WEE1, Homo sapiens, UniProt P30291)",100%
"Serine/threonine-protein kinase TAO3 (TAOK3, Homo sapiens, UniProt Q9H2K8)",100%
"Ephrin type-A receptor 7 (EPHA7, Homo sapiens, UniProt Q15375)",99%
"Serine/threonine-protein kinase STK11 (STK11, Homo sapiens, UniProt Q15831)",100%
"Serine/threonine-protein kinase MRCK beta (CDC42BPB, Homo sapiens, UniProt Q9Y5S2)",87%
